Experimental data gathered from unrelated publications.
Each numbered part is a random draw from the data of one study; scales do not carry over between parts. Changes are numbered by the printed parent chain.

Block 1
Target: ABI1, truncated, D143A, DHFR fusion (Arabidopsis thaliana, UniProt P49597)
Technique: DHFR PCA, dose-response
Medium: yeast
Setting: Hill fit, mean, not affinity
Together with: (+)-ABA, dose series
Direction: lower = more sensitive
Starting sequence: PYL1, truncated, DHFR fusion (Arabidopsis thaliana, UniProt Q8VZS8); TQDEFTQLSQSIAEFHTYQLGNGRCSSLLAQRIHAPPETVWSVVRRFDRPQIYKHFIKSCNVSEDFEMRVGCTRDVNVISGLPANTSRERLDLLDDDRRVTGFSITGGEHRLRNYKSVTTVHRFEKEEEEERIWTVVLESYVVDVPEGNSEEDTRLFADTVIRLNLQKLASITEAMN
Substitution	ABA EC50 [µM]
F66R	7.12
T6W	5.79
T86A	10.3
E151V	2.98
I52P	213
H55G	0.585
L156G	11.5
L94M	4.85
H122I	218
A170M	10.4
P83S	79.4
L112C	91.8
T1E	1.19
W134I	1.46

Block 2
Target: CCNB2, cyclin fold, Cln2 fusion (human)
Technique: yeast growth competition, sequencing
Medium: yeast
Setting: strong parent motif
Baseline: not given
Direction: higher = stronger binding
Starting sequence: BRCA2 docking peptide (human); PSIKRNLLNEFDR
Substitution	normalised enrichment score
PSIKRNLLHEFDR [N9H]	3.63
PSIKRNLLNHFDR [E10H]	0.986
PSIKRNLKNEFDR [L8K]	1.55
PSIKRNLLDEFDR [N9D]	4.12
PSIKRNLLGEFDR [N9G]	3.59
PSIARNLLNEFDR [K4A]	3.3
PFIKRNLLNEFDR [S2F]	2
PSIKRNLLNFFDR [E10F]	0.833
PSIKRNLLAEFDR [N9A]	4.26
PSIPRNLLNEFDR [K4P]	0.912
PSIKRNLLNEFDD [R13D]	4.38
PSIKRNLLNEFHR [D12H]	1.88
PSIKRLLLNEFDR [N6L]	0.513
PTIKRNLLNEFDR [S2T]	3.31
PSIKRNLLNGFDR [E10G]	0.0996
PSIKRNLLSEFDR [N9S]	3.99
PSIKRNLLNEVDR [F11V]	0.69
PSIKRNLLNEFDN [R13N]	4
PSIKRKLLNEFDR [N6K]	1.54

Block 3
Target: BATF, bZIP domain (human)
Technique: DHFR protein complementation
Medium: yeast
Setting: single substitutions, most at no-binding floor
Baseline: wild-type JUN-FOS pair
Direction: higher = stronger binding
Starting sequence: JUN, bZIP domain (human); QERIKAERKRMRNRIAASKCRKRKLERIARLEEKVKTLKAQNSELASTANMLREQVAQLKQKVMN; partner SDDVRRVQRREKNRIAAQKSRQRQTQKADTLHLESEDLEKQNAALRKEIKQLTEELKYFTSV
Substitution	binding fitness [natural log]
N42K	-0.201
E44R	-0.0725
R30A	0.212
S47P	-0.94
K39L	-0.257
K36Q	-0.0663
L52G	-1.15
V35L	-0.0631
E32A	0.221
A46Q	0.0583
I28D	-0.00677
L45P	-1.18
S47A	0.0789

Block 4
Target: Centromere-binding protein 1, full length, N-terminal tag (CBF1, Saccharomyces cerevisiae, UniProt P17106, residues 1-351)
Chain of UniProt P17106 (whole entry, looked up): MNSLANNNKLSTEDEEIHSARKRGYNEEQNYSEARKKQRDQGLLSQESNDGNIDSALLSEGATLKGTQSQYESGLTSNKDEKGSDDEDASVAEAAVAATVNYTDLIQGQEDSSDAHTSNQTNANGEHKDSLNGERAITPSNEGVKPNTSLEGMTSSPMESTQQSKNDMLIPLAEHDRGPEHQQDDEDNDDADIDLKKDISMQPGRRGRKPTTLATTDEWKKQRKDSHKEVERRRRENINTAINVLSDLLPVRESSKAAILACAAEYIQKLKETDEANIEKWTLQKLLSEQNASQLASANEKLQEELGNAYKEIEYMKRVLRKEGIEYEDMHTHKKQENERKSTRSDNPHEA
Technique: protein-binding microarray
Molecule type: double-stranded DNA, one strand shown
Medium: in vitro
Tested at: 0.8 µM
Setting: whole 60-bp probe, no competitor
Direction: higher = stronger binding
Oligonucleotide	fluorescence intensity [a.u.]
GAAAGGCGGGTTTGTGAGGTGAAAAAAAATATATAGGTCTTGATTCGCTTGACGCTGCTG	587
CTATTCTTCTTGCAGCACATCAGCTGCTTTGCTTTCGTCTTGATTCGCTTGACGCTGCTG	1120
CTATTAGGTGTGGGTCACCTGAATTTATTATTCTTCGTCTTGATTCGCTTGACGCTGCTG	1180
GAATGGTGAAAAAGTATGGTGACGTCTTTACTTTAGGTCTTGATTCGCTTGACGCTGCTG	587
CTAGTTTCCACGTACCACGCAAAACTTGTCTCATTCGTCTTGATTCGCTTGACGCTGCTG	528
TGTACGAAGCTATAGCACGATCCTATAGTAGTTAGGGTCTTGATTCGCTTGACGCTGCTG	489
GAAAAGAACTGCTGTGGTGTCATGATAGACGAATAGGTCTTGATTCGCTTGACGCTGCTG	634
GAAGCAATGCTTCATCTGATGTTTACACAGAATTAGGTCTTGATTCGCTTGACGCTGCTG	504
CTATTGTACGGTTCGTACGTGGGCACAATGAATTTCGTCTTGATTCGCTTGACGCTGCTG	505
CTATTAACTAGTTCTTGCCTGATGCCGTAATTTTTCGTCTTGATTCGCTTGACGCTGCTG	482
CTAGCTTGATGACATGTGATAGCACACCATGCTTTCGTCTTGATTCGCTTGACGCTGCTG	1950
CTACGGGGAACCTCCCACGTTCACAACCGCGCCTTCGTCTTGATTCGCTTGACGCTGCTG	480
CTAAAGAACAAAATCTCCGTGATCTTTTAAACTTTCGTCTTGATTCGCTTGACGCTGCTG	520
GAAAAAAGACTCTTTCATGTGGGTAATTTACTATAGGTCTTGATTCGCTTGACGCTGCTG	521
CTACTGACATAATTGTTGGTCACAAAATTCTTTTTCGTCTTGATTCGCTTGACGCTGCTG	626
GAACATCGTCGTCCCAATGACCACACTATTATATAGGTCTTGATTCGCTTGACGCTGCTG	558
GAAACATATATTAACCACATGAAGGCACTTGCATAGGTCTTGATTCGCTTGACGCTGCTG	575

Block 5
Target: Prothrombin, mature alpha-thrombin (F2, Homo sapiens, UniProt P00734)
Technique: aptamer microarray, sandwich
Molecule type: DNA with 2'F-ANA
Medium: in vitro
Tested at: 200 nM
Setting: whole 15-mer aptamer, many near background
Together with: Cy3 exosite-II aptamer, 400 nM
Direction: higher = stronger binding
Oligonucleotide: GGTTGGTGTGGTTGG
Modification	mean fluorescence intensity [a.u.]
2'F-ANA at 2 3 7 9 10 14	330
2'F-ANA at 1 4 5 10 13 14 15	62.3
2'F-ANA at 1 3 6 7 8 9 12 13 14 15	115
2'F-ANA at 2 5 7 8 10 12	64.4
2'F-ANA at 3 4 5 6 8 12 14	54.1
2'F-ANA at 1 2 4 9 11 12 14	52.9
2'F-ANA at 3 6 8 11 13 14	535
2'F-ANA at 5 6 8 9 10 11 12 15	78.1
2'F-ANA at 1 7 9 10 11 14	52.5
2'F-ANA at 3 5 6 11 12 13 14 15	55.1
2'F-ANA at 3 8 9	1220
2'F-ANA at 1 4 5 7 8 9 15	66
2'F-ANA at 1 2 4 6 11 12 13 15	131
2'F-ANA at 1 2 3 6 8 9 11 14 15	73.3
2'F-ANA at 1 2 8 9 10 11 12 13 14	50.5
2'F-ANA at 3 6 13 14	568
2'F-ANA at 2 4 6 8 10 11 14 15	58
2'F-ANA at 3 6 7 9 10 13	421
2'F-ANA at 4 5 7 8 10 11 12 13 14	56
2'F-ANA at 1 2 3 7 8 9 10 11 12 13 15	79
2'F-ANA at 5 6 7 8 10 13	72.9
2'F-ANA at 2 3 4 7 8 12 13 15	680

Block 6
Target: RING finger protein unkempt homolog, zinc fingers 1-6, GST-SBP tag (UNK, Homo sapiens, UniProt Q9C0B0, residues 30-357)
Technique: RNA Bind-n-Seq
Molecule type: RNA
Medium: in vitro
Tested at: not given
Setting: RNA with constant flanks, ends assumed
Baseline: input RNA pool
Direction: higher = stronger binding
Residues (chain): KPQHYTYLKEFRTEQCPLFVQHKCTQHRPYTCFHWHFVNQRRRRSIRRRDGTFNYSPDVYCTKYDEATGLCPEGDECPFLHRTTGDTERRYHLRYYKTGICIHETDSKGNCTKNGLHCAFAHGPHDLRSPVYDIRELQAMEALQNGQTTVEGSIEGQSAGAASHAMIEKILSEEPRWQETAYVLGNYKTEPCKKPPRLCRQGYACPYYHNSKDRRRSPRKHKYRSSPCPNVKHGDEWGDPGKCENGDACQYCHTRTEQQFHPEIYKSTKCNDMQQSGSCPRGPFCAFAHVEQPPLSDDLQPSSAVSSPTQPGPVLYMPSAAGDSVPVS
Oligonucleotide	bound/input enrichment [ratio]
GGGAGUUCUACAGUCCGACGAUCGGUGGAGAUGGAGAUGAUAUGGAAAUGUUCAUGGAGGAGAUGAGAGAGAUCCGGAGAAAGCUCCGGGAGCUACAGCUGAGAAAUUGUCUACGCAUCCUUAUGGGGGAGCUGUCUAACCACCAACAGAGGAUUGAGCAUCA	0.288
GGGAGUUCUACAGUCCGACGAUCUGGGCGAACCACGUCUUCCUCGGGUGCCGAUACCCUCAAAAAGUUAUGGAUAAAAUACUCCGUAUGGCUGAAGGCAUCAAAGUGACAGAUGCUCCAACCUAUACAACAAGAGAUGAACUGCAACAGAGGAUUGAGCAUCA	0.0554
GGGAGUUCUACAGUCCGACGAUCAAAGGAAAGGAAGUAGAUAACUUUGUGGACAAAUUAAAAUCUGAAGGUGAAACCAUCAUGUCCUCCCGUAUGGGCAAGCGUACUUCUGAAGCAACCAAAAUGCAUGCUCCACCCAUUAAUCAACAGAGGAUUGAGCAUCA	0.146
GGGAGUUCUACAGUCCGACGAUCAGGAUUAAUCUUAAGGAUUGUAUAAUUCAUUAAAGCUGUGGUCUUUCCAUGUGGAGACUGACCGAAAAUAAUUUUGUCCCAAGUCUUAUUUGCUGACUUUUUCUGUCAUGAGUGAGAUUGCAACAGAGGAUUGAGCAUCA	0.123

Other studies, line by line
Molecule	target	test	test system	conditions	scale	endpoint	value
PhoQ, residues 284 288 289 292 302 303 QWQEDG	PhoP, residues 12 14 15 18 19 NHTVL (Escherichia coli, UniProt P23836)	Sort-seq, refers to: YFP reporter	E. coli	PhoQ-PhoP variant library, together with: 10 µM Mg2+	baseline: high Mg2+ state, higher = stronger signaling	fold induction	0.916

Excerpt of the above (block 5):
Modification	mean fluorescence intensity [a.u.]
2'F-ANA at 1 4 5 7 8 9 15	66
2'F-ANA at 1 2 4 6 11 12 13 15	131
2'F-ANA at 1 2 3 6 8 9 11 14 15	73.3
2'F-ANA at 1 2 8 9 10 11 12 13 14	50.5
2'F-ANA at 3 6 13 14	568
2'F-ANA at 2 4 6 8 10 11 14 15	58
2'F-ANA at 3 6 7 9 10 13	421
2'F-ANA at 4 5 7 8 10 11 12 13 14	56
2'F-ANA at 1 2 3 7 8 9 10 11 12 13 15	79
